Published values from different studies.
Compare with care: the assays were run in different laboratories. Numbers after ± are the reported error.

With `CN[C@@](C)(C[18F])C(=O)O` the tissue uptake was 0.3 ± 0.1 %ID/g (SCID mouse SK-OV-3 xenograft, brain; 15 min, post injection).
With `Cc1ncc2n1-c1ccc(Cl)cc1C(c1ccccc1F)=NC2` the t1/2 was 5.43 h (healthy volunteers, plasma; oral, 7.5 mg single dose, day 1, arithmetic mean, alone).
The t1/2 of `COc1ccc2c(c1)[C@]13CCCC[C@@H]1[C@H](C2)N(C)CC3` is reported as 2.39 ± 0.67 h (Wistar rat, both sexes, plasma; oral, 5 mg/kg, 2 h after pretreatment, added: single TCE 400 mg/kg).
For `COc1ccc2c(c1)[C@]13CCCC[C@@H]1[C@H](C2)N(C)CC3`, AUC read “decreased” (measured: HHMA; rat, plasma; intraperitoneal, 30 mg/kg, three doses, added: MDMA 20 mg/kg oral; relative to: MDMA with saline).
For `CN[C@]1(c2ccccc2Cl)CCCCC1=O`, the plasma concentration was 62 ng/mL (human; intravenous, 0.3 mg/kg, 5 min after tracer, pseudo-steady state).
`C#Cc1ccc2c(c1)C(c1ccccc1F)=N[C@@H](C)c1c(C(=O)OC)ncn1-2` gave a compound remaining of under 5% (metabolic stability; human, liver microsomes; 30 min).
`COc1ccsc1CNCC[C@@]1(c2ccccn2)CCOC2(CCCC2)C1` gave a clearance of 935 mL/min (healthy human, normal renal function, plasma; intravenous, 1 mg single dose, arithmetic mean).
`Cc1ncc2n1-c1ccc(Cl)cc1C(c1ccccc1F)=NC2` has a Tmax of 0.9 h (human CYP3A5 expressers, serum; oral, added: ketoconazole 400 mg).
`C=C1C[C@@H]2[C@H](CC[C@]3(C)C(=O)CC[C@@H]23)[C@@]2(C)C=CC(=O)C=C12` — result for “median plasma concentration”: 22.4 ng/mL (LC-MS/MS; postmenopausal breast cancer women, plasma; oral, 25 mg/day, 2 h, AKR7A2 A142T homozygous variant).
For `C[C@H]1CNCCc2ccc(Cl)cc21`, the plasma concentration was 27.5 ± 1.1 ng/mL (Sprague-Dawley rat, male, plasma; subcutaneous, 1 mg/kg, 30 min).
The AUC of `CN1C(=O)CC(=O)N(c2ccccc2)c2cc(Cl)ccc21` is reported as 3.89 ng·h/mg (CF-1 mouse, brain; intraperitoneal, 17 mg/kg, 0 to 8 h).
The Tmax of `CN1CC[C@@]23CCCC[C@@H]2[C@@H]1Cc1ccc(O)cc13` is reported as 0.46 ± 0.19 h (Wistar rat, both sexes, plasma; oral, 5 mg/kg DEM, DEM 2 h after pretreatment, added: TCE 400 mg/kg single pretreatment).
For `CCCCn1cc(C(=O)c2cccc3ccccc23)c2ccccc21`, “deviation from nominal” read at most 15% (blood; 24 h, freeze-thaw and bench-top).
With `Cc1ncc(OC[C@@]2(c3cccc(F)c3)C[C@H]2C(=O)Nc2ccc(F)cn2)c(C)n1` the half-life was 118 h (human, plasma; 10 mg, mean, added: itraconazole 200 mg).
With `CCCCCCCCCCC(=O)O[C@H]1CC[C@H]2[C@@H]3CCC4=CC(=O)CC[C@]4(C)[C@H]3CC[C@]12C` the testosterone change was 29.8% (human blood; 600 ng/mL, 60 min, 4 °C, NaF 5 mg/mL, K2 oxalate 4 mg/mL; relative to: no compound added).
`CN(C)CCc1c[nH]c2ccc(O)cc12` has a Tmax of about 0.217 h (male FVB/N mouse, serum; intraperitoneal, 2 mg/kg of 5-MeO-DMT, metabolite of 5-MeO-DMT).
For `O=C(O)c1nn(Cc2ccc(Cl)cc2Cl)c2ccccc12`, the EC20 was 660 µM (mitochondrial swelling; BALB/cByJ female mouse liver mitochondria; 30 min, added: succinate + rotenone; relative to: CaCl2 maximal swelling).
`CC(C)C[C@@H]1NC(=O)[C@H](C)N(C)C(=O)[C@H](Cc2ccccc2)NCc2cc(c[nH]2)CNC1=O` gave a Papp of 0.0288 ×10⁻⁶ cm/s (PAMPA; 100 µM, 17 h, pH 6.4).
`N[C@@]1(c2ccccc2Cl)CCC[C@@H](O)C1=O` gave a Cmax of 5640 to 5900 ng/mL (male CD-1 mice, plasma; 50 mg/kg, range of two cohorts).
`Cc1ncc2n1-c1ccc(Cl)cc1C(c1ccccc1F)=NC2` gave a Cmax of 39 ng/mL (healthy men, plasma; oral, 7.5 mg, day 19, LS mean, added: 7 days post amenamevir).
`CC[C@@H]1CN2CC[C@@]3(O)C(=Nc4cccc(OC)c43)[C@@H]2C[C@@H]1/C(=C\OC)C(=O)OC` has a concentration of 3190 ± 184 ng/mL (rat, plasma extract; 3200 ng/mL, 12 h, 25 °C, autosampler stability).

A few entries again:
The Tmax of `CN1CC[C@@]23CCCC[C@@H]2[C@@H]1Cc1ccc(O)cc13` is reported as 0.46 ± 0.19 h (Wistar rat, both sexes, plasma; oral, 5 mg/kg DEM, DEM 2 h after pretreatment, added: TCE 400 mg/kg single pretreatment).
For `O=C(O)c1nn(Cc2ccc(Cl)cc2Cl)c2ccccc12`, the EC20 was 660 µM (mitochondrial swelling; BALB/cByJ female mouse liver mitochondria; 30 min, added: succinate + rotenone; relative to: CaCl2 maximal swelling).
